Results of several laboratories.
Protocols differ between the studies behind these lines.
Target: Serine/threonine-protein kinase OSR1 (OXSR1, Homo sapiens, UniProt O95747)

Structure (SMILES) | test | system | conditions | scale | measurement | value
COc1cc(Nc2nc(C)cc(-c3cnn4nc(OC)ccc34)n2)cc(C(F)(F)F)c1 | inhibitor |  | 1 µM, OSR1 | baseline: control | remaining activity | 83%
Cc1cnc2nc1Nc1cccc(c1)COC/C=C/COCc1cc(ccc1OCCN1CCOCC1)N2 | binding, competition with immobilised ligand |  | 0.1 µM |  | remaining binding | 86%
O=C(Cc1ccc(OCc2ccccc2)cc1)NC1(C(=O)O)CCN(C(=O)c2ccc(-c3cccc(Cl)c3)cc2)CC1 | enzyme activity, inhibitor |  | 10 µM |  | activity vs control | 100%
COc1c(Cl)cccc1Nc1c(-c2ccncc2C#C[C@@]2(C)CCCN2C(=O)/C=C/CN(C)C)[nH]c2c1C(=O)NCC2 | binding, competition with immobilised ligand |  | 3 µM |  | remaining binding | 92%
CCN1CCN(Cc2ccc(C(=O)Nc3ccc(C)c(NCc4cnc5[nH]ccc5c4OC)c3)cc2C(F)(F)F)CC1 | binding, competition with immobilised ligand |  | 1 µM |  | remaining binding | 100%
NC(=O)[C@@H](O)C[C@H]1CCc2sc3ncnc(O[C@H]4CC[C@H](N5CCOCC5)CC4)c3c21 | enzyme activity, inhibitor |  | 10 µM |  | inhibition | 8%
CNC1C[S+]2CC[S+]3CC[S+](C1)[Ru-4]321([N]=C=S)[n]2c3ccc(OC)cc3c3c4c(c5cc(F)c[n+]1c5c32)C(=O)NC4=O (centres unmarked) | KinomeScan |  | 0.1 µM | baseline: untreated | remaining binding | 56%
CC(C)=CC1OC(C)(C)C2C=C3C(=O)C(Cl)=CC(O)C3C3C(O)C4OC4C(=O)C132 (centres unmarked) | cell-free assay, competition with immobilised ligand |  | 10 µM |  | remaining binding | 73%
C=CC(=O)N1CCc2ccc(-n3c(=O)ccc4cnc5ccc(-c6cnn(C)c6)cc5c43)cc21 | KINOMEscan |  | 1 µM | baseline: DMSO control | remaining binding | 89%
COc1cc(Nc2nccc(-c3cnn4nc(OC)ccc34)n2)cc(C(F)(F)F)c1 | binding, competition with immobilised ligand |  | 1 µM |  | remaining binding | 77%
Nc1ncc(-c2cc(-c3cnn(CC(F)(F)F)c3)ncc2F)nc1C(=O)NC1CNCC(F)C1 (centres unmarked) | enzyme activity |  | 1 µM | baseline: DMSO control | remaining activity | 110%
C=CC(=O)Nc1cc(-c2nn(C3CCN(CCNC(=O)[C@H](C)CCC45CC6CC(CC(C6)C4)C5)CC3)c3ncnc(N)c23)ccc1Oc1ccccc1 | inhibitor, KiNativ profiling | biochemical | 2 µM |  | inhibition | 32.1%
CNC(=O)C1CCN(c2cc(C)c(F)cc2NC(=O)c2ccc(-c3cc(O)ccc3C)c(C)c2)CC1 | binding, competition with immobilised ligand |  | 1 µM |  | remaining binding | 100%
Nc1ncc2c(n1)-c1c([nH]c3ccc(C4=CCOCC4)cc13)CCC2 | binding, competition with immobilised ligand |  | 1 µM |  | remaining binding | 100%
C=CC(=O)N1CCCC(n2c(=O)c3ncccc3n(Cc3ccc(Oc4ccccc4)cc3)c2=O)C1 (centres unmarked) | cell-free assay, competition with immobilised ligand |  | 1 µM |  | remaining binding | 53%
NC(=O)C[C@H]1CCc2sc3ncnc(O[C@H]4CC[C@H](N5CCOCC5)CC4)c3c21 | enzyme activity, inhibitor |  | 10 µM |  | inhibition | -2%
Cc1ccc(-c2c(/C=C(\C#N)C(=O)NC(C)C)n(CCCO)c3ncnc(N)c23)cc1 | cell-free assay, competition with immobilised ligand |  | 1 µM |  | remaining binding | 100%

Some of these lines once more:
Structure (SMILES) | test | system | conditions | scale | measurement | value
C=CC(=O)Nc1cc(-c2nn(C3CCN(CCNC(=O)[C@H](C)CCC45CC6CC(CC(C6)C4)C5)CC3)c3ncnc(N)c23)ccc1Oc1ccccc1 | inhibitor, KiNativ profiling | biochemical | 2 µM |  | inhibition | 32.1%
